Published values collected from several papers.
Parts stem from different laboratories: compare values within a part only. Changes are numbered by the printed parent chain.

Block 1 — target: CCND3, cyclin fold, Cln2 fusion (human); method: yeast growth competition, sequencing; matrix: yeast; notes: weak parent motif; relative to: not given; direction: higher = stronger binding
Parent: SCAPER docking peptide (human); SNARRSLNFGGST
Variant	normalised enrichment score
SNARRSLNFGHST [G11H]	0.147
QNARRSLNFGGST [S1Q]	0.126
SNARRSLQFGGST [N8Q]	0.164
PNARRSLNFGGST [S1P]	0.0834
SNARRFLNFGGST [S6F]	0.196
STARRSLNFGGST [N2T]	0.185
SNARRHLNFGGST [S6H]	0.166
SNARRSLNLGGST [F9L]	0.0597
SNARRSLNFGGSR [T13R]	0.131
SNDRRSLNFGGST [A3D]	0.0642
SNYRRSLNFGGST [A3Y]	0.0562
SNVRRSLNFGGST [A3V]	0.0179
SNARRSLNFGTST [G11T]	0.188
SNARRCLNFGGST [S6C]	0.199
SNARRSLNFHGST [G10H]	0.133
SNARRSLNTGGST [F9T]	0.126
SNARQSLNFGGST [R5Q]	0.0817
SNARYSLNFGGST [R5Y]	0.0851
SNARRSLEFGGST [N8E]	0.179
SNARRSLNFYGST [G10Y]	0.164

Block 2 — method: DHFR PCA, deep sequencing; matrix: yeast; together with: (+)-ABA 4.8 µM; relative to: wild-type fitted maximum; direction: higher = stronger binding
Target: ABI1, truncated, D143A, DHFR fusion (Arabidopsis thaliana)
Notes: methotrexate growth selection, single substitutions
Parent: PYL1, truncated, DHFR fusion (Arabidopsis thaliana); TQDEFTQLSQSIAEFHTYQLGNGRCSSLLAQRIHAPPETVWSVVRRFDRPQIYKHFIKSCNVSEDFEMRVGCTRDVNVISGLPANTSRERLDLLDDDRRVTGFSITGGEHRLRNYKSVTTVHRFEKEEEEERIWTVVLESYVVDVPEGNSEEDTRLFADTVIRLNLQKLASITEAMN
Variant	relative binding score [%]
Q51R	22.8
P37E	30.2
T154M	24.5
P37V	63.5
T86S	78.4
N165Q	-0.633
R69K	80.2
A13F	48.2
R113Q	87.3
Q10P	68.9
P37W	7.51
T119H	2.24
K116R	76.3
E130C	72.3
H110Q	13.6
P50H	16.9
K54E	-2.31
G148E	40
N165K	1.26
W134R	42.8
K168R	68.7

Block 3 — method: protein-binding microarray; form: double-stranded DNA, one strand shown; matrix: in vitro; tested at: 0.8 µM; notes: whole 60-bp probe, no competitor; direction: higher = stronger binding; all sequences stand within: … GTCTTGATTCGCTTGACGCTGCTG
Target: Centromere-binding protein 1, full length, N-terminal tag (CBF1, Saccharomyces cerevisiae, UniProt P17106, residues 1-351)
Strand	fluorescence intensity
CTAAACTTTTCAAATCACGGATCATTTTTCATTTTC	680 a.u.
GAAGCCTCGGCCTGCCGCGTGGTGGTGGTAGTTTAG	502 a.u.
CCTAACTACTATACATTCGTGCTATAGCTTCGTACA	523 a.u.
GAACTTCTTATAATTGACGTCATAAAAAATATTTAG	511 a.u.
GAAAGCTATGTTTGCCACGTAGTAGCTACAATATAG	498 a.u.
GAATATAGTCAAAGTCACGCCTATACACTTAATTAG	896 a.u.
CTATCATCAGTCCCTGATGTCTTGCTCTTTCCTTTC	544 a.u.
GAAAGGCCTGTGCAGCACGTGACCCACGCTTGGTAG	24200 a.u.
CTAGTTACTAGTCTTAACATCATGTATAGTCTGTTC	523 a.u.
GAACAAATGTTACGTGGTGTTGAAGAAAGAATGTAG	582 a.u.
GAAAGAAAGTGATGTTCCGTGACCTTTTTTATTTAG	887 a.u.
GAAAATCGAAGTGCCCACGTGCTGCTCATTCTCTAG	6040 a.u.
GAAAGCCCAAAACTTAACGTGCACCAACACGTGTAG	3510 a.u.
GAAACAAGGCTTTTAAACGTGATTGTGTTGTATTAG	701 a.u.
GAATGTTGTTGTCAACACATGAAAAGTTCCGTATAG	516 a.u.
CTAAGACAGTGACAAAACGTGATAGATTACATATTC	1190 a.u.
CTAAAACTATTTTCCCCCGTGAGACAGCGACTGTTC	526 a.u.

Block 4 — method: EMSA with sequencing; form: double-stranded DNA, one strand shown; matrix: in vitro; tested at: 10 and 20 nM; relative to: negative control set to 0; direction: higher = stronger binding
Target: Hepatocyte nuclear factor 3-alpha (Foxa1, Mus musculus, UniProt P35582, residues 1-468, full length assumed)
Notes: whole designed probe, mean of two concentrations, ends assumed
All sequences stand within: GTGAGCGGTGCCCATTGATGGGGAAC … TTTCACTGGGATCGTGGGGAC
Target sequence (chain): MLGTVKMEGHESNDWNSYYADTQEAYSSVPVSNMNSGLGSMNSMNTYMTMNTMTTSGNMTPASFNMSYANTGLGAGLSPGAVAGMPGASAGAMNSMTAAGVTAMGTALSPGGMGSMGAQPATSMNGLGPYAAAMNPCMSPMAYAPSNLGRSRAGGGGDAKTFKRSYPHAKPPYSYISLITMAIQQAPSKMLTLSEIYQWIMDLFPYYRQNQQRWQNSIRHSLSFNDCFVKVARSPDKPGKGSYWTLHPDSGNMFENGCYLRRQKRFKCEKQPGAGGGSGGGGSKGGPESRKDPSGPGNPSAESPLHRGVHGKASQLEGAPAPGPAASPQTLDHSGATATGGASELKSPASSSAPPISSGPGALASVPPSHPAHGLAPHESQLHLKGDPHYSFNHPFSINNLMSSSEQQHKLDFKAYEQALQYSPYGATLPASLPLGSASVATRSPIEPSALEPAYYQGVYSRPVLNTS
Strand	normalised bound fraction [ratio]
TATCTGAGAAGTCTGATCCAGAGTTGATGAGCAGATAAAAAATGTTGAAAGGATCCACGCTCTTTCCATCTCTCTGCTTAGTCATCCTCACTGTGTTTGCTTTTCTTCAGTTTGTTACTTTTTTTTTTTTTTGAGATCGAGTTTCGCTCTTGTTACCCAGGCTGGAGTGCAATGGGGCGATCTCTGCTCACTG	0.306
CTTCCCACAGCCGACCTCCTCCGCCTGTCCCTCCCGCCACCCCGCCTGTCCCCCGCCTTTCCAGCAGCCTCCAAGTGGCAGGCTGGGTGCTGTGTCAATAAGGGTGTGTGCCCTGCCAGGACCACGGGGCGGGTCGGGAACCGGTTACCTGGCGGGCGGGCGAGGCGCACGTCCTGGCTCGTGCCTCACCGCG	0.286
GTGGAAGAAGCAAATTATTTTTGTGTTAAAATGGATATTATCAACTGCAAAGAAAAAGGTGAATATTTCACAAGTGAGCCAGAACATTTACAGTGTAAACAAGAGCAGTTGCTACCTTTGCTTTTTTTTTCCCACTTCTTCAATATGATCACCATGCTTTTCATTACCCTGCTACTCAGTATTTCTAGTCAAC	0.328
TCTAAAATTCCAAAAAGTTTGCTTTTGCCCTTTTATAATACCTATCTCTAGCTTCTCTCTTTCTGGAGTAACTGCTGATTTATTTTCTGCCAAAAATTGCTTTATTTTCTTGAAAGATATAGAAATGCAATCATACAGTAAGTGCTCCTATTTTCCTGTTTTCTTTCATTCAACATAATTATTTTAAGACTTA	0.0211
TAGTCCCTCTTTCAAAAAACTTGCTAGATGCAAAACGATAGATATGGATATGGACGTGGACACAGGCCTAGGTATAGACAGATACACTTAATGTAAACATGCACGTATATACATTCAAGTACTGTTAGGTACTGGGGATCCAAAGGTGGCTTCTATTAACAACAGCAGCCCTTACTCACTGAACATATCCTGT	0.358
ATACAGGTTTTATAACATATGTAGTTAAGGTTTCTAAAGTGAGATTATGTCTCAACTAACTATAACTGAAATAGAAGAGTGTATCTATTCCAATGTAAACATGTTGACTGATAATGAGAAAAATGATCCTTATAAAGAATAGCAAATCATGATCCTGAGAGAGTAAGTATCAAAGCTGATGGGAGGATGCTAT	0.348
CACAGATTGCGGCCGTTTTTCAAATATTTGAGGAGTTCTTAGGTGTAGTTGTTCTATTCATTTCCTACTTATGTCCCTTTATTTTATTGCAAAATAAACACAGCTTGGCACTTGACATTTTCCCTGACCCATCTTTTAAACATACATTAGATGTGAGTCATAGGCAATGAACGGAACTCGCATTTTTGCCCAC	0.312
ATAATCTGAGGTGGCGACTGGCCAGATAGCCTGCCCCTACTCACTCTGGCTATAAAATAAGCCTACAGTATCCACAAGGGGAAATACTAACAGTGTAATCTAGCACATCAAGGTGCAGTCAAAGAAGCCAGGTCCCCACTGATGAGATGAAGAAAATAACCACCTAAGTCTCAGGTCCCTGTATCTGCCTAAT	-0.0317

Block 5 — Molecule: B1 (RNF24 RING domain); method: yeast two-hybrid; matrix: yeast; notes: mostly zero background; relative to: not given; direction: higher = stronger interaction
B1: RNF24 RING domain (UniProt Q9Y225); chain KVKELNLHELCAVCLEDFKPRDELGICPCKHAFHRKCLIKWLEVRKVCPLCNMPVLQLAQLH
target	lacZ reporter activity
UBE2J2 UBC core domain (UniProt Q8N2K1)	0
UBE2B UBC core domain (UniProt P63146)	0
UBE2S UBC core domain (UniProt Q16763)	0
UBE2M UBC core domain (UniProt P61081)	0
UBE2O UBC core domain (UniProt Q9C0C9)	0
UBE2Z UBC core domain (UniProt Q9H832)	0

Block 6 — method: universal PBM; form: double-stranded DNA, one strand shown; matrix: in vitro; tested at: 600 nM; direction: higher = stronger binding
Target: Sal-like protein 4, full length isoform A (SALL4, Homo sapiens, UniProt Q9UJQ4, residues 1-1053)
Notes: 8-mer, flanks averaged, mean of replicates
Strand	E-score
AACTTGCT	0.0524
CGTTCTTA	0.003
CGAGATAG	-0.235
CCATTCAC	-0.116
CCTGAAGC	-0.251
AAGTTACC	0.0429
ATCCACAG	-0.0345
TATGCTGA	0.188
ATCTCACC	0.0657
ACGGGGGC	-0.398
GAATGCCC	-0.223
CTTGATTA	0.154
CTAAGTAC	0.08
CGTCCAAC	0.0398
AACACCAA	0.0775
TACGAAAA	0.278
AGCAGGAA	0.0183
GCCCTCGA	-0.16
AAGATCTC	0.0255

Block 7 — method: protein binding microarray; form: double-stranded DNA, one strand shown; matrix: in vitro; tested at: not given; relative to: not given; direction: higher = stronger binding
Target: Histone acetyltransferase KAT6A, winged helix 2, GST fusion (KAT6A, Homo sapiens, UniProt Q92794, residues 85-181)
Notes: 8-mer, flanks averaged, mean of 2 arrays, mostly near background
Residues (chain): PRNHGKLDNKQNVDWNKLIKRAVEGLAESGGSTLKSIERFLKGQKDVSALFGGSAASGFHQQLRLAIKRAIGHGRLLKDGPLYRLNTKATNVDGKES
Strand	E-score
ACGAATTC	0.154
CAGTGCAC	-0.0258
AGTCTTCA	-0.0823
AGCGGATA	0.106
AAAACGCC	0.173
AGGTACAT	-0.171
CACCGCTC	-0.0213
ATAGTAAT	0.0631
CAACCGTC	-0.0181
AGGGACCC	0.0204
CGGTATAG	-0.203
CTGGTCCC	0.0271
AGCGAGTG	0.25
AAACACCT	0.119
ACTCTGAT	-0.0242
GTATCTTA	0.142
GGTATCTA	-0.0406
GACAAAAA	0.15
CTGCCGGA	0.218
ATGGTTCA	0.103
AAGCTAGG	-0.0895
GCACGGCA	0.0985
